Results from different studies.
Each numbered part is a random draw from the data of one study; scales do not carry over between parts.
UniProt O14733, sequence (whole entry, looked up): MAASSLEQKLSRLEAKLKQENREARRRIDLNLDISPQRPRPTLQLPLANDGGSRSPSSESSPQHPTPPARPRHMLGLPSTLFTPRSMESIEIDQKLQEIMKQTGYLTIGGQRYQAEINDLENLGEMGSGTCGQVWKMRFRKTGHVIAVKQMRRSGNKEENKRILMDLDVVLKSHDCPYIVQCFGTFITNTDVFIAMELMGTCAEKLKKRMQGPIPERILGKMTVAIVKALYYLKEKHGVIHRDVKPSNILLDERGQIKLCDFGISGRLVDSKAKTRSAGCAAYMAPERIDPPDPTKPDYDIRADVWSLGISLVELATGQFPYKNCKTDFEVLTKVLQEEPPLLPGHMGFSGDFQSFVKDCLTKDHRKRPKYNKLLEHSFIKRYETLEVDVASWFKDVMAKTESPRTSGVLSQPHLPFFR
UniProt P57059, sequence (whole entry, looked up): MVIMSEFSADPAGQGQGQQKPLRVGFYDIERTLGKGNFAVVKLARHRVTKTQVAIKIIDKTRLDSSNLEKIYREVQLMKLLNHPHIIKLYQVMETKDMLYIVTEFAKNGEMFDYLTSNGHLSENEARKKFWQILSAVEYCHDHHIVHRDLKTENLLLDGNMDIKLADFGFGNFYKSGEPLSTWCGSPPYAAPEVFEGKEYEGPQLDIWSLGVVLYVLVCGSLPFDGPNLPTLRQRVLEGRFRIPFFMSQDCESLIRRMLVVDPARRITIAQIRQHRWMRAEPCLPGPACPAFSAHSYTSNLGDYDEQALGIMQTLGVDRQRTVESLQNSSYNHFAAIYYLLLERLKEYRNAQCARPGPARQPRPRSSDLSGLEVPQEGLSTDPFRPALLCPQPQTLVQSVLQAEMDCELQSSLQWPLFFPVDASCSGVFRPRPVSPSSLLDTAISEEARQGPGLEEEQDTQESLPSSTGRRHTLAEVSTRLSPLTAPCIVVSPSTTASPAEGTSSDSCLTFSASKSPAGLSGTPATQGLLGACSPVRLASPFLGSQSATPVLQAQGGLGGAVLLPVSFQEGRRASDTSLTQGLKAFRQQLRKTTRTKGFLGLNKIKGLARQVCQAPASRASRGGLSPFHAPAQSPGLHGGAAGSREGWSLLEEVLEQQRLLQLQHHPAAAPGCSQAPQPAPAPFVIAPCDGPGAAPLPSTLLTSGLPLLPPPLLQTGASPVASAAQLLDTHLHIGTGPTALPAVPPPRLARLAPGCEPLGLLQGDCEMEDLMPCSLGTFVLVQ
UniProt Q8IVW4, sequence (whole entry, looked up): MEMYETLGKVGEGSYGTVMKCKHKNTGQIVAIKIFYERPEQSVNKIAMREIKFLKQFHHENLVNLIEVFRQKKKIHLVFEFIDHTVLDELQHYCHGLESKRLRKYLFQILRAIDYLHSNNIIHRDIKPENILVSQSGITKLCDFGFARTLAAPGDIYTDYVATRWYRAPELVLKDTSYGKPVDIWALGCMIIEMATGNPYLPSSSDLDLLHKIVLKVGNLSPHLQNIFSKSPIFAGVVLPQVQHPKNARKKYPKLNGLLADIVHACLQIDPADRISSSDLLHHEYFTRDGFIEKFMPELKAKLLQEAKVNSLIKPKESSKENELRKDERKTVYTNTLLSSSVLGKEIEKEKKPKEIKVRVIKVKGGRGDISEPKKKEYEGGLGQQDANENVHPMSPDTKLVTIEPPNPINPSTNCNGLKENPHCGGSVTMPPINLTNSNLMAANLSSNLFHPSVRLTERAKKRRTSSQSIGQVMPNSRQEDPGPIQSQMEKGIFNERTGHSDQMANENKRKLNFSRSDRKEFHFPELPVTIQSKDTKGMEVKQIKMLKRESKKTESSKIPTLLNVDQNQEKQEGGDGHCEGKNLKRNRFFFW
UniProt Q9HC98, sequence (whole entry, looked up): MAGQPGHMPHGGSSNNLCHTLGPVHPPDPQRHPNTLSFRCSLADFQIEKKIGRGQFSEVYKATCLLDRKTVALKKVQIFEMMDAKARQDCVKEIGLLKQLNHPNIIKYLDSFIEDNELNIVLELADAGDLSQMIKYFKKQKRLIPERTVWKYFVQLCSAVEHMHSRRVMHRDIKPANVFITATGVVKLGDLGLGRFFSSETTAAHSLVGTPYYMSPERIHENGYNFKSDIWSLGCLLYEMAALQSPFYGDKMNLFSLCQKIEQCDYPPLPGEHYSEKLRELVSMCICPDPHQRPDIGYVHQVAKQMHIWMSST
UniProt Q13523, sequence (whole entry, looked up): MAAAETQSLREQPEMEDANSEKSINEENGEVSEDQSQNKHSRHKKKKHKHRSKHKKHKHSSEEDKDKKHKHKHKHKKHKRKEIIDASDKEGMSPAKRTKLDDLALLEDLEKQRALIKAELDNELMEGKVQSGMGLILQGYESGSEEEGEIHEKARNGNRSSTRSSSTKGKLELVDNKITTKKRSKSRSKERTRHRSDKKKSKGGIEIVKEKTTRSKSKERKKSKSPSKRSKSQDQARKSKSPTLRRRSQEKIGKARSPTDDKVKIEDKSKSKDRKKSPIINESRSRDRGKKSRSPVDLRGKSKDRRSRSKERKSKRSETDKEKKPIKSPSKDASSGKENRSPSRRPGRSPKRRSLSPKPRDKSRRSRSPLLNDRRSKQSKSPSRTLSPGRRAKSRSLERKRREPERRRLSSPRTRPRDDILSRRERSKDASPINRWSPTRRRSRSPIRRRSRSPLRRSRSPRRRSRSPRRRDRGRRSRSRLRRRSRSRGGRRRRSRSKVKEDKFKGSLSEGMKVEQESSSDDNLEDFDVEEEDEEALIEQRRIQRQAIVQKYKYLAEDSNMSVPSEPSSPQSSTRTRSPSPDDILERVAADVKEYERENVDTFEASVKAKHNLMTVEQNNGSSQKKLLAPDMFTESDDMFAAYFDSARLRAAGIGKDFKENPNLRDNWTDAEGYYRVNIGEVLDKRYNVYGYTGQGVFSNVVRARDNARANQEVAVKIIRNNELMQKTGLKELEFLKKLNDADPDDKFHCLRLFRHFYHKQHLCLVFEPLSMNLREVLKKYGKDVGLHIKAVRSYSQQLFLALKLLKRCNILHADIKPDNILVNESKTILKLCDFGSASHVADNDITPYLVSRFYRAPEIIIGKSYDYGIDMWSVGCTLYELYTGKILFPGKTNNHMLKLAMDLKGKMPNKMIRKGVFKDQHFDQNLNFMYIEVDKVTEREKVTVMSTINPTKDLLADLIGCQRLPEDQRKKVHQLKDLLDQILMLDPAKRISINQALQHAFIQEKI
UniProt P42685, sequence (whole entry, looked up): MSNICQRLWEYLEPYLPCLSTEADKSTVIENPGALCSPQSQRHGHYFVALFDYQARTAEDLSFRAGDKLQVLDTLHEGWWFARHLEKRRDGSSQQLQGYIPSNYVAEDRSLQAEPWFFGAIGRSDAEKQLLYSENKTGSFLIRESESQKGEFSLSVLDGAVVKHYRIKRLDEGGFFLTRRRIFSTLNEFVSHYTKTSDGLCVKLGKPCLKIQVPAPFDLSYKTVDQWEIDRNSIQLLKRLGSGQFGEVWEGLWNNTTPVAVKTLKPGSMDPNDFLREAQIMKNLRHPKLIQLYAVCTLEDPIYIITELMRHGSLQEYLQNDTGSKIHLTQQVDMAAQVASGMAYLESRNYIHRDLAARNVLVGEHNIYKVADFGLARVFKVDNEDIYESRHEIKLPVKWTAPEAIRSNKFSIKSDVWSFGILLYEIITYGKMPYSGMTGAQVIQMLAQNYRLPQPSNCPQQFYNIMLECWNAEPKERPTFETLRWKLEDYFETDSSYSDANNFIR

Series 1
Target: TAR DNA-binding protein 43, full length, His tag (TARDBP, Homo sapiens, UniProt Q13148, residues 1-414)
Method: RNA Bind-n-Seq
Form: RNA
Sample: in vitro
Concentration: 20 nM
Setting: 6-mer, flanks averaged, single round
Together with: 150 mM LiCl
Baseline: input library
Reading: higher = stronger binding
Quantity: 6-mer enrichment (R)
UCCUUC: 0.907
AUCUAC: 0.826
AAGACG: 0.837
ACUGAC: 0.833
CAAGGC: 0.847
AACCUG: 0.842
CUAAUG: 0.905
CUAUAC: 0.855

Series 2
Target: Fibroblast growth factor receptor 2 (FGFR2, Homo sapiens, UniProt P21802)
UniProt P21802, sequence (whole entry, looked up): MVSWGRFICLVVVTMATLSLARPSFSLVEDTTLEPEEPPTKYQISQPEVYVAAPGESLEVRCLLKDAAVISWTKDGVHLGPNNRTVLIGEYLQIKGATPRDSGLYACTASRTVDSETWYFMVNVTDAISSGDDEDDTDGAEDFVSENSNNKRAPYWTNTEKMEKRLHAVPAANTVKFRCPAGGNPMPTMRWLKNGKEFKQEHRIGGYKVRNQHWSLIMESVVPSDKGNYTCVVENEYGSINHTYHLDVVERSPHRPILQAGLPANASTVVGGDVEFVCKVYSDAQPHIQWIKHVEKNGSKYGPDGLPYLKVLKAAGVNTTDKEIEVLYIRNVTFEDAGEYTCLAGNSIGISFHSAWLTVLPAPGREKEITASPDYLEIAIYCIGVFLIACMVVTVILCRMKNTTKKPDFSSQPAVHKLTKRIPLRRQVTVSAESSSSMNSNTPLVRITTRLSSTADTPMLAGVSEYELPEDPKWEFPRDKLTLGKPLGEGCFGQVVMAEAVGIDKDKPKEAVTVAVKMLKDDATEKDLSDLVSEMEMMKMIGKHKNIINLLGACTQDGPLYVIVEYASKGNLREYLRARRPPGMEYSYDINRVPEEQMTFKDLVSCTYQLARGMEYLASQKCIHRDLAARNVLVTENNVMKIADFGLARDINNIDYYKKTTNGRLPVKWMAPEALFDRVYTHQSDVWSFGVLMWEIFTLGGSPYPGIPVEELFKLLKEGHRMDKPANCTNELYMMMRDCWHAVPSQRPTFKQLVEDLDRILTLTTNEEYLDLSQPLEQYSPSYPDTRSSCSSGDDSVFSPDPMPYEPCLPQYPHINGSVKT
Observed: enzyme activity
Mode: inhibitor
Concentration: 0.5 µM
Baseline: control
Quantity: remaining activity
N#CC(C#N)=C(N)/C(C#N)=C/c1ccc(O)cc1: 102%
COc1ccc(CNC(=O)Nc2ncc([N+](=O)[O-])s2)cc1: 97.4%
Cc1ccc(Nc2nccc(N(C)c3ccc4c(C)n(C)nc4c3)n2)cc1S(N)(=O)=O: 40.2%
C#Cc1cccc(Nc2ncnc3cc(OCCOC)c(OCCOC)cc23)c1: 83.4%
Nc1ccc2ncnc(NCCc3ccc(Oc4ccccc4)cc3)c2c1: 95.5%
O=C1NC(=O)C(c2cn(CCCn3ccnc3)c3ccccc23)=C1Nc1ccccc1: 103%
COc1cc2ncnc(Nc3ccc(Oc4ccccc4)cc3)c2cc1OC: 93.7%
CCOC(=O)c1c(C)[nH]c(/C=C2\C(=O)Nc3ccccc32)c1C: 97.9%
O=C(CCCc1ccc(-c2ccccc2F)cc1)Nc1ccc(O)cc1: 102%
Cc1nc(-c2ccccc2)c(-c2ccncc2)o1: 108%
CC(C)[C@H](CO)Nc1nc(Nc2cc(N)cc(Cl)c2)c2ncn(C(C)C)c2n1: 97.3%
Cn1c2ccccc2c2c3c(c4c5ccccc5n(CCC#N)c4c21)CNC3=O: 79.8%
COc1ccc(C(=O)Nc2sc3c(c2C(N)=O)CCCC3)cc1OC: 100%
CO[C@H]1C[C@@H]2CC[C@@H](C)[C@@](O)(O2)C(=O)C(=O)N2CCCC[C@H]2C(=O)O[C@H]([C@H](C)C[C@@H]2CC[C@@H](O)[C@H](OC)C2)CC(=O)[C@H](C)/C=C(\C)[C@@H](O)[C@@H](OC)C(=O)[C@H](C)C[C@H](C)/C=C/C=C/C=C/1C: 110%
Oc1ccc(-c2nc(-c3ccncc3)c(-c3ccc(F)cc3)[nH]2)cc1: 103%

Series 3
SMILES: CCS(=O)(=O)c1cc2cc(C[C@](O)(CC(C)(C)c3ccc(F)cc3C(N)=O)C(F)(F)F)[nH]c2cn1
Concentration: 1 µM
Quantity: remaining binding
EPHA6 (Homo sapiens, UniProt Q9UF33); cell-free assay, competition with immobilised ligand: 100%
SIK1 (Homo sapiens, UniProt P57059); competition binding: 100%
CDKL3 (Homo sapiens, UniProt Q8IVW4); cell-free assay, competition with immobilised ligand: 100%
PRPF4B (Homo sapiens, UniProt Q13523); cell-free assay, competition with immobilised ligand: 98%
EGFR (Homo sapiens, UniProt P00533, L858R); cell-free assay, competition with immobilised ligand: 100%
MAP2K7 (Homo sapiens, UniProt O14733); cell-free assay, competition with immobilised ligand: 99%
Aurora kinase A (AURKA, Homo sapiens, UniProt O14965); cell-free assay, competition with immobilised ligand: 88%
STK35 (Homo sapiens, UniProt Q8TDR2); cell-free assay, competition with immobilised ligand: 100%
DMPK (Homo sapiens, UniProt Q09013); cell-free assay, competition with immobilised ligand: 99%
FRK (Homo sapiens, UniProt P42685); cell-free assay, competition with immobilised ligand: 80%
MATK (Homo sapiens, UniProt P42679); cell-free assay, competition with immobilised ligand: 100%
EPHA5 (Homo sapiens, UniProt P54756); cell-free assay, competition with immobilised ligand: 100%
NEK6 (Homo sapiens, UniProt Q9HC98); cell-free assay, competition with immobilised ligand: 100%
BRSK1 (Homo sapiens, UniProt Q8TDC3); cell-free assay, competition with immobilised ligand: 99%
PAK4 (Homo sapiens, UniProt O96013); cell-free assay, competition with immobilised ligand: 100%
CDK2 (Homo sapiens, UniProt P24941); cell-free assay, competition with immobilised ligand: 94%

Series 4
Target: ATP-dependent RNA helicase DDX3X, helicase core (DDX3X, Homo sapiens, UniProt O00571, residues 132-607)
UniProt O00571, sequence (132-607, looked up): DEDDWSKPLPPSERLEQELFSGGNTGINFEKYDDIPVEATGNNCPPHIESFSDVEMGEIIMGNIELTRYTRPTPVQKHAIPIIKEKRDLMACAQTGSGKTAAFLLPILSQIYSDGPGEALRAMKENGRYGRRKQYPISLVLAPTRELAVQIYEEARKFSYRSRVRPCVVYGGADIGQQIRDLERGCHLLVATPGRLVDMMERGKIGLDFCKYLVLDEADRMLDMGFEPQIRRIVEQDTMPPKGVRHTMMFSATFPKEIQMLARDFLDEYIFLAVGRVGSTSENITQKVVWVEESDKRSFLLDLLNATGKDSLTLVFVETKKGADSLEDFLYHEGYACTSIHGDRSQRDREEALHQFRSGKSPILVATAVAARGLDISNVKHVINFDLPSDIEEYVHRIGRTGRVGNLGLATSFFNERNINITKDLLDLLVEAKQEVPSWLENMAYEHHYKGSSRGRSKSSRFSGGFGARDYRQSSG
Method: RNA Bind-n-Seq
Form: RNA
Sample: in vitro
Concentration: 90 pmol
Setting: 4-mer, random 30-nt RNA, single round
Together with: 3 µM iPr-DMDA-PatA, 2 mM ADP, 2 mM phosphate
Baseline: input library
Reading: higher = stronger binding
Quantity: 4-mer enrichment
AUGC: 0.819 fold
UAUA: 1.3 fold
UAGG: 1.03 fold
UGAG: 1.12 fold
UCGC: 0.796 fold
UCUC: 0.911 fold
CCAA: 1.22 fold
ACGU: 0.917 fold

Repeated from above (series 3):
STK35 (Homo sapiens, UniProt Q8TDR2); cell-free assay, competition with immobilised ligand: 100%
DMPK (Homo sapiens, UniProt Q09013); cell-free assay, competition with immobilised ligand: 99%
FRK (Homo sapiens, UniProt P42685); cell-free assay, competition with immobilised ligand: 80%
MATK (Homo sapiens, UniProt P42679); cell-free assay, competition with immobilised ligand: 100%
EPHA5 (Homo sapiens, UniProt P54756); cell-free assay, competition with immobilised ligand: 100%
NEK6 (Homo sapiens, UniProt Q9HC98); cell-free assay, competition with immobilised ligand: 100%
BRSK1 (Homo sapiens, UniProt Q8TDC3); cell-free assay, competition with immobilised ligand: 99%
